# Published values from different studies.
# ± marks the error that the study gave.
SMILES,test,system,setting,how to read,quantity,result
OCc1cn(Cc2ccc(-c3noc(-c4ccc(OCC[18F])c(C(F)(F)F)c4)n3)cc2)nn1,,"Lewis rats, female, thalamus","intravenous, 5 min",,brain uptake,0.46 %ID/g
O=C(Cc1ccc(OCc2ccccc2)cc1)NC1(C(=O)O)CCN(C(=O)c2ccc(-c3cccc(Cl)c3)cc2)CC1,,BALB/c mice female,"intraperitoneal, 20 mg/kg",,AUC(0-inf),6610 ng·h/mL
C=CC(=O)Nc1cc(Nc2nccc(-c3cn(C4CC4)c4ccccc34)n2)c(OC)cc1N(C)CCNC,,"healthy Chinese male human, plasma","oral, 110 mg almonertinib, metabolite, [14C] single dose",,Vd/F,5960 ± 724 L
CSCC(NC(=O)c1cc(Cl)ccc1Cl)C(=O)NC(CC(C)C)B(O)O (centres unmarked),,bile duct-cannulated rat,0.30 mg/kg of prodrug,,detection in bile,not detected
O=C(NCCCN(CCCCN(CCCNC(=O)c1cccc(=O)n1[O-])C(=O)c1cccc(=O)n1[O-])C(=O)c1cccc(=O)n1[O-])c1cccc(=O)n1[O-].[89Zr+4],,"mouse, bone",10 min,,tracer uptake,1.04 %ID/g
Cl.NC(CO)CCc1ccccc1Cl (racemic),,,-20 °C,,storage stability,stable
CC(C)(O)c1ncc([S@](N)(=O)=NC(=O)Nc2c3c(cc4c2CCC4)CCC3)s1,,"healthy human fasted, plasma","oral, 100 mg single dose, spray-dried dispersion",,AUC(0-last),98500 ng·h/mL
CCCC[C@H](NC(C)=O)C(=O)N[C@H]1CC(=O)NCCCC[C@@H](C(=O)N[C@@H](C(=O)N2CCC[C@@H]2C(N)=O)C(C)C)NC(=O)[C@H](Cc2c[nH]c3ccccc23)NC(=O)[C@H](CCCN=C(N)N)NC(=O)[C@@H](Cc2ccc3ccccc3c2)NC(=O)[C@@H]2CCCN2C1=O,,"healthy dogs, plasma","subcutaneous, 2.25 mg/kg per day, day 1, 24 h post-dose, median",,plasma histamine,9.4 ng/mL
C[Si](C)(C)C[C@H](CN)CC(=O)O,,"Sprague-Dawley rat, male, brain","oral, 30 mg/kg, estimated as Cmax x Kp",,brain Cmax,6.5 µM
COc1ccc(-c2csc(N/N=C(\C)c3ccc(O)cc3)n2)cc1,,stock and working solutions,"concentration not given, 7 days, room temperature",,deviation from initial concentration,< 10%
CCc1c2c(nc3ccc(O)cc13)-c1cc3c(c(=O)n1C2)COC(=O)[C@]3(O)CC,,"human patients, plasma","intravenous, 56 mg/m^2 of parent drug",,AUC(0-inf),1080 ng·h/mL
Nc1ncnc2c1nc(-n1nnc3c1CCC1C(CO)C1CC3)n2C1CC(O)C(CO)O1 (mixture of isomers),frequency-domain fluorometry,methanol,,,fluorescence lifetime τ1,0.1 ns
N=C(N)NCCC[C@@H]1NC(=O)[C@H](Cc2c[nH]c3ccccc23)NC(=O)[C@@H](CC2CCCCC2)NC(=O)[C@@H]2CCCN2C(=O)[C@@H](NC(=O)CCc2ccccc2)CCCNC1=O,,"C57BL/6J mice, spinal cord","intraperitoneal, 1 mg/kg, two-compartment model",,apparent total clearance (CL/F),0.99 ng/(min·ng/g)
COC(=O)c1ccc2c(c1)NC(=O)/C2=C(\Nc1ccc2c(c1)CCN2C(=O)CN1CCOCC1)c1ccccc1,,Caco-2,"2 µM, 2 h",,Papp A→B,0.43 ×10⁻⁶ cm/s
Cn1c(=O)oc2ccc(-c3ccc(CC(C#N)NC(=O)C4CNCCCO4)c(F)c3)cc21 (centres unmarked),,human,"oral, 10 mg once daily, TEAE, multiple ascending dose",,bacterial test positive incidence,0%
CC(C)[C@H](NC(=O)[C@@H]1CCCN1C(=O)[C@H](CCCNC(=N)N)NC(=O)[C@H](CS)NC(=O)[C@H](Cc1c[nH]c2ccccc12)NC(=O)[C@H](CCCNC(=N)N)NC(=O)[C@@H](Cc1ccccc1)NC(=O)[C@H](Cc1c[nH]cn1)NC(=O)[C@H](CCC(=O)O)NC(=O)[C@H](CS)NC(=O)[C@H](CS)NC(=O)[C@@H]1CC(=O)N[C@@H](CCCNC(=N)N)C(=O)NCC(=O)N[C@@H](CC(=O)O)C(=O)N[C@H](Cc2ccc(O)cc2)C(=O)N1)C(N)=O [technetium-99m labelled],,"C57 mouse, female, B16/F1 melanoma","intravenous, 0.037 MBq, 24 h",relative to: tumour over muscle,tumour to tissue ratio,26.1
NC[C@@H](C(=O)Nc1ccc(-c2cn[nH]c2)cc1)c1ccccc1,OECD 405 eye irritation,"New Zealand White rabbit, eye","topical, 0.1%, 25 h (day 2), scale 0 to 4",direction not given,chemosis score,0
Oc1ccc2ccccc2c1/N=N/c1ccccc1,,extracted rat blood QC samples,"0.5 µg/L, 2 h, room temperature, short-term stability",,measured concentration,0.491 µg/L
CC(C)(C)NCC(SS(=O)(=O)O)c1ccccc1 (centres unmarked),,"female Swiss mouse, plasma","intravenous, 15 mg/kg",,C0,37200 ng/mL
COc1ccc(C=NCCCN(C)CCN(C)CCCN=Cc2ccc(OC)cc2[O-])c([O-])c1.[67Ga+3],,rat,"intravenous, 2 h",relative to: heart over liver,tissue uptake ratio,7.2 ± 0.8
CC[C@H](C)[C@H](NC(=O)[C@H](CC(C)C)NC(=O)[C@H](Cc1c[nH]c2ccccc12)NC(=O)[C@H](C)NC(=O)[C@@H](NC(=O)[C@H](Cc1ccccc1)NC(=O)[C@H](CC(=O)O)NC(=O)[C@H](CCCNC(=N)N)NC(=O)[C@H](C)NC(=O)[C@H](C)NC(=O)[C@H](CC(C)C)NC(=O)[C@H](C)NC(=O)[C@H](CC(=O)O)NC(=O)[C@H](CC(C)C)NC(=O)[C@@H](NC(=O)[C@@H](NC(=O)[C@H](C)NC(=O)[C@H](CC(C)C)NC(=O)[C@H](CCC(=O)O)NC(=O)[C@H](CO)NC(=O)[C@H](CO)NC(=O)[C@H](Cc1ccccc1)NC(=O)[C@@H](NC(=O)CNC(=O)[C@H](CCC(=O)O)NC(=O)CNC(=O)[C@@H](N)Cc1c[nH]cn1)[C@@H](C)O)[C@@H](C)O)[C@@H](C)CC)[C@@H](C)CC)C(=O)N[C@@H](C)C(=O)N[C@H](C(=O)N[C@@H](CCCCN)C(=O)N[C@H](C(=O)N[C@H](C(=O)N[C@@H](CC(=O)O)C(=O)N[C@@H](CCCCN)C(=O)O)[C@@H](C)O)[C@@H](C)CC)[C@@H](C)O,immunoaffinity LC-MS/MS,"healthy human subjects, plasma","intravenous infusion, 1 mg single dose, infused over 15 min",,tmax,1.5 h
CC(=O)N[C@H](CC(=O)O)C(=O)N[C@H](Cc1c[nH]c2ccccc12)C(=O)N[C@H](Cc1ccccc1)C(=O)N[C@H](CCCCN)C(=O)N[C@H](C)C(=O)N[C@H](Cc1ccccc1)C(=O)N[C@H](Cc1ccc(O)cc1)C(=O)N[C@H](CC(=O)O)C(=O)N[C@H](CCCCN)C(=O)N[C@@H](C(=O)N[C@H](C)C(=O)N[C@H](CCC(=O)O)C(=O)N[C@H](CCCCN)C(=O)N[C@H](Cc1ccccc1)C(=O)N[C@H](CCCCN)C(=O)N[C@H](CCC(=O)O)C(=O)N[C@H](C)C(=O)N[C@H](Cc1ccccc1)C(N)=O)C(C)C,,"statin-treated high-risk CHD men, plasma","oral, 500 mg daily, day 1, 0 to 2 h, mean observed, outlier excluded",,AUC(0-t),32.9 ng·h/mL
COc1cc(N(C)CCN(C)C)c(NC(=O)CCSCC(N)C(=O)O)cc1Nc1nccc(-c2cn(C3CC3)c3ccccc23)n1 (centres unmarked),,"human, urine and feces","0 to 96 h urine, 0 to 240 h feces",relative to: dose,excreted amount,1.89%
CN[C@@H]1[C@H](O)[C@H](NC)[C@H]2O[C@]3(O)[C@H](O[C@@H]2[C@H]1O)O[C@H](C)C[C@@]3(O)CNCCc1ccc(F)cc1,,"male BALB/c mouse, plasma","intravenous, 10 mg/kg",,C0,38000 to 74000 ng/mL
NC12CNCCNCC(NCc3ccc(CNC(=O)CCCC(=O)NCc4ccc(-c5nncnn5)cc4)cc3)(CNCCNC1)CNCCNC2.[64Cu+2],OLINDA dosimetry,red marrow,"pretargeting, 120-h interval",,mean absorbed dose,0.0258 rad/mCi
COc1cc(OC)cc(C2=C3C(C)=C(I)C(/C=C/c4c[nH]c5ccccc45)=[N+]3[B-](F)(F)n3c(/C=C/c4c[nH]c5ccccc45)c(I)c(C)c32)c1,,DMSO,,relative to: methylene blue,fluorescence quantum yield,0.1
CCCC[C@H](NC(=O)CNC(=O)CNC(=O)CN1CCN(CC(=O)O)CCN(CC(=O)O)CCN(CC(=O)O)CC1)C(=O)N[C@H]1CC(=O)NCCCC[C@@H](C(N)=O)NC(=O)[C@H](Cc2c[nH]c3ccccc23)NC(=O)[C@H](CCCNC(=N)N)NC(=O)[C@@H](Cc2ccccc2)NC(=O)[C@H](Cc2c[nH]cn2)NC1=O [gallium-67 labelled],,"female C57 mice, B16/F1 melanoma, skin","intravenous, 0.037 MBq, 2 h",,tissue uptake,0.84 ± 0.25 %ID/g
COc1cc([O-])c(C=NCCCN(C)CCN(C)CCCN=Cc2c([O-])cc(OC)cc2OC)c(OC)c1.[67Ga+3],,rat,"intravenous, 1 min",relative to: heart over blood,tissue uptake ratio,0.68 ± 0.08
COc1cc(NC(C)=O)c2c(c1O)-c1c(OC)c(OC)cc3c1C(C2)N(C)CC3 (centres unmarked),,"rat, plasma","100 µg/mL, 40 d, -20 °C, long-term storage",,remaining compound,96.8 ± 5.6%
CC(=O)N[C@H](CCCCN)C(=O)N[C@H](CC(C)C)C(=O)N[C@H](CCCCN)C(=O)N[C@H](CO)C(=O)N[C@H](CC(C)C)C(=O)N[C@H](CC(C)C)C(=O)N[C@H](CCCCN)C(=O)N[C@@H](C(=O)N[C@H](CC(C)C)C(=O)N[C@H](CO)C(=O)N[C@H](CCCCN)C(=O)N[C@H](C)C(=O)N[C@H](CCCCN)C(=O)N[C@H](CCCCN)C(=O)N[C@H](CCCCN)C(=O)N[C@H](CCCCN)C(=O)N[C@H](CC(C)C)C(=O)N[C@H](CCCCN)C(=O)N[C@@H](C(=O)N[C@H](CC(C)C)C(=O)N[C@H](CC(C)C)C(=O)N[C@H](CCCCN)C(=O)N[C@H](C)C(=O)N[C@H](CC(C)C)C(=O)N[C@H](CO)C(=O)N[C@H](CCCCN)C(N)=O)[C@H](C)O)[C@H](C)O,circular dichroism,aqueous buffer,"pH 7.0, 5 °C",relative to: reference peptide in TFE,helical content,9%
O=C(O)/C=C/c1cccc(S(=O)(=O)Nc2ccccc2)c1,,"human, mild liver dysfunction, plasma","intravenous, 400 mg/m^2 belinostat, cycle 1 day -7, geometric mean",relative to: metabolite over belinostat,AUC(0-inf) metabolic ratio,0.423
Cc1ccc(OCC(=O)N(Cc2cccs2)c2ccn[nH]2)cc1,,"male Sprague-Dawley rat, plasma","oral, 30 mg/kg, single dose",,Tmax,18.6 min

# Excerpt of the above:
SMILES,test,system,setting,how to read,quantity,result
CN[C@@H]1[C@H](O)[C@H](NC)[C@H]2O[C@]3(O)[C@H](O[C@@H]2[C@H]1O)O[C@H](C)C[C@@]3(O)CNCCc1ccc(F)cc1,,"male BALB/c mouse, plasma","intravenous, 10 mg/kg",,C0,38000 to 74000 ng/mL
NC12CNCCNCC(NCc3ccc(CNC(=O)CCCC(=O)NCc4ccc(-c5nncnn5)cc4)cc3)(CNCCNC1)CNCCNC2.[64Cu+2],OLINDA dosimetry,red marrow,"pretargeting, 120-h interval",,mean absorbed dose,0.0258 rad/mCi
COc1cc(OC)cc(C2=C3C(C)=C(I)C(/C=C/c4c[nH]c5ccccc45)=[N+]3[B-](F)(F)n3c(/C=C/c4c[nH]c5ccccc45)c(I)c(C)c32)c1,,DMSO,,relative to: methylene blue,fluorescence quantum yield,0.1
CCCC[C@H](NC(=O)CNC(=O)CNC(=O)CN1CCN(CC(=O)O)CCN(CC(=O)O)CCN(CC(=O)O)CC1)C(=O)N[C@H]1CC(=O)NCCCC[C@@H](C(N)=O)NC(=O)[C@H](Cc2c[nH]c3ccccc23)NC(=O)[C@H](CCCNC(=N)N)NC(=O)[C@@H](Cc2ccccc2)NC(=O)[C@H](Cc2c[nH]cn2)NC1=O [gallium-67 labelled],,"female C57 mice, B16/F1 melanoma, skin","intravenous, 0.037 MBq, 2 h",,tissue uptake,0.84 ± 0.25 %ID/g
